Assay results pooled from the literature.
Each line is one published result; not all experiments were run side by side. Values joined by “and” are separate records of one study, mostly repeats; a detail may differ. Numbers after ± are the reported error.
U2AF2: U2AF2 148-342 (Homo sapiens, UniProt P26368)
Sequence of UniProt P26368 (whole entry, looked up): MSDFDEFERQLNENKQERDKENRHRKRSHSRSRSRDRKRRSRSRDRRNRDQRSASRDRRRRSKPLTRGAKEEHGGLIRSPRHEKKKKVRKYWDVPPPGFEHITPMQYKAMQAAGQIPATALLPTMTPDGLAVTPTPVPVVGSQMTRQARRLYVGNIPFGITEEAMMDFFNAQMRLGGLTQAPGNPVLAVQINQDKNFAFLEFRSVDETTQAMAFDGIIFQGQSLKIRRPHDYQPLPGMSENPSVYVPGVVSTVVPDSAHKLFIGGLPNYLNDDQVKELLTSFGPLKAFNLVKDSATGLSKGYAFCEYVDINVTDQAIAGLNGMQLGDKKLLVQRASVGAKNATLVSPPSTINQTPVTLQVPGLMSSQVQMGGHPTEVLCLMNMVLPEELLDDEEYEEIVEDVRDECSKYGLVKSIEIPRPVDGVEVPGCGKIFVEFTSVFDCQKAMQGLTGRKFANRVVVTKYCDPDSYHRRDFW
SPT15 full length assumed: SPT15 full length assumed (Saccharomyces cerevisiae, UniProt P13393)
Sequence of UniProt P13393 (whole entry, looked up): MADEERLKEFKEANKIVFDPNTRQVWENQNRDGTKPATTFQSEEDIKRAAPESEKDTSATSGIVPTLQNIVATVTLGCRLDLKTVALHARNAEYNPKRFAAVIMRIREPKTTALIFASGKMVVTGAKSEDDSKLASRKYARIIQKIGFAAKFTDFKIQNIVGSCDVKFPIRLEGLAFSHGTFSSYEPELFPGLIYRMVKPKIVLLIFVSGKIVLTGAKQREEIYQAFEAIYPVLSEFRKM
CBF1: CBF1 1-351 (Saccharomyces cerevisiae, UniProt P17106)
Sequence of UniProt P17106 (whole entry, looked up): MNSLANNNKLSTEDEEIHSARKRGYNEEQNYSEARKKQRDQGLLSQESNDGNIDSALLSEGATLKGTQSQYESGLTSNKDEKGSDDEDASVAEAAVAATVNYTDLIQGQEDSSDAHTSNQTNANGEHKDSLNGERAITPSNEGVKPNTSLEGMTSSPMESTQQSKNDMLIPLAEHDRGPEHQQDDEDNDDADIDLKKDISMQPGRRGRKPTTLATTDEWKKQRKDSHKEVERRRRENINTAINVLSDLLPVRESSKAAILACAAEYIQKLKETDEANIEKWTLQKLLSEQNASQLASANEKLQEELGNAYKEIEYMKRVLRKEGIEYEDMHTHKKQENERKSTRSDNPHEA
nac full length assumed: nac full length assumed (Escherichia coli, UniProt Q47005)
Sequence of UniProt Q47005 (whole entry, looked up): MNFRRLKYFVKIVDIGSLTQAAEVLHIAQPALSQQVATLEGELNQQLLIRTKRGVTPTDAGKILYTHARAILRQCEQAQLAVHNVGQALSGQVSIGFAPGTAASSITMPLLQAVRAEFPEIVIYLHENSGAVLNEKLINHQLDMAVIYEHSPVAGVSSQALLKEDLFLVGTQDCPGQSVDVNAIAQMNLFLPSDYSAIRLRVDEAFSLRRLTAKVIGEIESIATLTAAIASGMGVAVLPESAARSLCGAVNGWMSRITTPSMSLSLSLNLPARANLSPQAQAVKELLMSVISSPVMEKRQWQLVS
CBF1 full length assumed: CBF1 full length assumed (Saccharomyces cerevisiae, UniProt P17106)
glnG full length assumed: glnG full length assumed (Escherichia coli, UniProt P0AFB8)
Sequence of UniProt P0AFB8 (whole entry, looked up): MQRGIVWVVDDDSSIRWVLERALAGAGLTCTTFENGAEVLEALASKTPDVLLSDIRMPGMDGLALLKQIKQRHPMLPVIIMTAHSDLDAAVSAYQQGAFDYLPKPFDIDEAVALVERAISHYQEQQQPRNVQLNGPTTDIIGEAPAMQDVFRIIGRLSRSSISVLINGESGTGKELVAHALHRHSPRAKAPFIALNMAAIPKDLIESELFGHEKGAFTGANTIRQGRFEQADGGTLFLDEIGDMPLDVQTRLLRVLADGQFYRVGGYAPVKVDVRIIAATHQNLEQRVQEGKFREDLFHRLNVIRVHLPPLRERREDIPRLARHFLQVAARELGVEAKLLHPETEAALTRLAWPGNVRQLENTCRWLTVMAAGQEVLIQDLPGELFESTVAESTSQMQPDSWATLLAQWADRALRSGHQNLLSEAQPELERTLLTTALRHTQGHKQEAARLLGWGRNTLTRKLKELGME
MECP2: MECP2 1-486 (Homo sapiens, UniProt P51608)
T1: MUTYH 1-535 (Homo sapiens); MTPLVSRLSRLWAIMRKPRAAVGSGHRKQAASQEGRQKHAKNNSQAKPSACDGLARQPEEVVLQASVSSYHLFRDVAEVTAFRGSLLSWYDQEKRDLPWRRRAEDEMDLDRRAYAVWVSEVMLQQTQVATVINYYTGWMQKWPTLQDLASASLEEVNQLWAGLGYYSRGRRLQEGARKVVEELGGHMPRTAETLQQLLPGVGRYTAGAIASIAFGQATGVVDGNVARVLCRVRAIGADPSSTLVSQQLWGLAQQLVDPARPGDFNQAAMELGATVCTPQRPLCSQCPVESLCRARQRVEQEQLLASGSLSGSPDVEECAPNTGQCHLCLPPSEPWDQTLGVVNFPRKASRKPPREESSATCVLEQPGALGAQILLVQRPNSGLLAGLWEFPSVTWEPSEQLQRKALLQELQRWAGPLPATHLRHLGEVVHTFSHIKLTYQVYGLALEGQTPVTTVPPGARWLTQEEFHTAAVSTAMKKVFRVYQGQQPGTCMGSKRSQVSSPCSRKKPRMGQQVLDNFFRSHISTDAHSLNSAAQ
T2: TOA1/TOA2 1-286; 1-122 (Saccharomyces cerevisiae); chain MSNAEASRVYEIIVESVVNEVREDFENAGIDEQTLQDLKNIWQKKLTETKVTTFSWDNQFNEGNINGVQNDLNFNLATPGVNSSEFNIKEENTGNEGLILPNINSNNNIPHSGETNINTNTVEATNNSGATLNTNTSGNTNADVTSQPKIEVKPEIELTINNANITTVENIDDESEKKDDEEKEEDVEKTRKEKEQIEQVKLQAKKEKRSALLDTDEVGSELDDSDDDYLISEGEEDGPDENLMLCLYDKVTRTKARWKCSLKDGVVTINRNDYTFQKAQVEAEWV; chain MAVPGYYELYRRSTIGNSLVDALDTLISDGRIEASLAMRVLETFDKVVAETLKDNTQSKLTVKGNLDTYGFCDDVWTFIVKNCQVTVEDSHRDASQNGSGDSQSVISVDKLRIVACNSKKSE
Sequence of UniProt P0ACL9 (whole entry, looked up): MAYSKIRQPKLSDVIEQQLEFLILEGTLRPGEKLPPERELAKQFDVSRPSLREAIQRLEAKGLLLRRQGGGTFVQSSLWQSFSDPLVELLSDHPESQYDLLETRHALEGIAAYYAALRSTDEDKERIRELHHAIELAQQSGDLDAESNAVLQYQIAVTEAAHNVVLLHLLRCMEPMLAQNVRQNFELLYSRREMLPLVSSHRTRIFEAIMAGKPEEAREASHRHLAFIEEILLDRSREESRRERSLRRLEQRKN
Sequence of UniProt P14565 (whole entry, looked up): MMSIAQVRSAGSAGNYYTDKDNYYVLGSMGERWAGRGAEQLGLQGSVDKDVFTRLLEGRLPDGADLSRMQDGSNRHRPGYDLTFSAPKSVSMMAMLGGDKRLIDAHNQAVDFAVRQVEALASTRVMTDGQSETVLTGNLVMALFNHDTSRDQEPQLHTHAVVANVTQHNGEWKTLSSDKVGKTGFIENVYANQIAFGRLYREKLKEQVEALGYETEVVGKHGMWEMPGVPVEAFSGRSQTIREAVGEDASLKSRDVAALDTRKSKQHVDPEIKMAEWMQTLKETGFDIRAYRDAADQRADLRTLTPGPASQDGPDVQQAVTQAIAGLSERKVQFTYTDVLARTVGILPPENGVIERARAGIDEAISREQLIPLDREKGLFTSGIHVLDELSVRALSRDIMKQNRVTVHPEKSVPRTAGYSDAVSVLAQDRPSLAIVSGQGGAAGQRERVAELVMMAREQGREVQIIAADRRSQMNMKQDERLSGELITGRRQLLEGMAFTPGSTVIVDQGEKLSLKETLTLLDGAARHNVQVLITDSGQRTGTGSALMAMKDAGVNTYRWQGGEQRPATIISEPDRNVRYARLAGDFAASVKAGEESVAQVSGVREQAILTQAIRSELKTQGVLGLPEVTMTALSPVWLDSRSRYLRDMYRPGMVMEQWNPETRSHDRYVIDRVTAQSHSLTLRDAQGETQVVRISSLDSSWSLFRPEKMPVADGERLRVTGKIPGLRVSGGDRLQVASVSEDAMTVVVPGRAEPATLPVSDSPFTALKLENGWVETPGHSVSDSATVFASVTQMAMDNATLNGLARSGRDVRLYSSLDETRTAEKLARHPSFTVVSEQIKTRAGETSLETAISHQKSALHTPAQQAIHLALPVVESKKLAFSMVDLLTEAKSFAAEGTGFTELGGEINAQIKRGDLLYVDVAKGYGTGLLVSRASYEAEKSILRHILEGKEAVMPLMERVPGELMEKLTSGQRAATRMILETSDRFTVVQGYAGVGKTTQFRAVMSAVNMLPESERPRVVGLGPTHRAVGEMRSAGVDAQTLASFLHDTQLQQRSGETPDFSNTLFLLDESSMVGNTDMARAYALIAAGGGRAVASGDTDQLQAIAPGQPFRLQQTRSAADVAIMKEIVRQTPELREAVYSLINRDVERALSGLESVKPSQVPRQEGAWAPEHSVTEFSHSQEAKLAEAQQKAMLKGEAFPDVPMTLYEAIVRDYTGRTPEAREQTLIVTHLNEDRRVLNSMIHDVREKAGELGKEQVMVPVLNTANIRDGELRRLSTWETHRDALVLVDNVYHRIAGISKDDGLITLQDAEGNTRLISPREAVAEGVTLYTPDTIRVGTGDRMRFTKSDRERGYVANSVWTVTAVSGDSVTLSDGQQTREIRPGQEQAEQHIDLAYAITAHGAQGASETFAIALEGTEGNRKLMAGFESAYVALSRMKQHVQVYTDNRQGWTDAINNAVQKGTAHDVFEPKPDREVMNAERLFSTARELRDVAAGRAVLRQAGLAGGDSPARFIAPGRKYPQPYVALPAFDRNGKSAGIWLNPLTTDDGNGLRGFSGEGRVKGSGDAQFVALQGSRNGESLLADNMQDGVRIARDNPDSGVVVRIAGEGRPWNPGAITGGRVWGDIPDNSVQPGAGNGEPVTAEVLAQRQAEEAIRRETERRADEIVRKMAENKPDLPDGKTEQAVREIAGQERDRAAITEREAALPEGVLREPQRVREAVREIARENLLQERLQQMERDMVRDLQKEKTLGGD
Sequence of UniProt P07676 (whole entry, unmodified, looked up): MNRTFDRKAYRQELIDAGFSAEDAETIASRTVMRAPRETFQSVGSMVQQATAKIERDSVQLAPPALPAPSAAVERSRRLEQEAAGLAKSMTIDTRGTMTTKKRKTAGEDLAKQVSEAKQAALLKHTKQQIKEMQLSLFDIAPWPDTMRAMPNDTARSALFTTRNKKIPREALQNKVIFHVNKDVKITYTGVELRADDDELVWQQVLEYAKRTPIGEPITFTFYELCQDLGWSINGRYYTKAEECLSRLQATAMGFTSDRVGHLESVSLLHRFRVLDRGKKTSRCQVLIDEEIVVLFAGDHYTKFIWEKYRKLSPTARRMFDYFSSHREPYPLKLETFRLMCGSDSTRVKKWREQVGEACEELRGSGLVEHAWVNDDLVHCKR
Sequence of UniProt P15976 (whole entry, looked up): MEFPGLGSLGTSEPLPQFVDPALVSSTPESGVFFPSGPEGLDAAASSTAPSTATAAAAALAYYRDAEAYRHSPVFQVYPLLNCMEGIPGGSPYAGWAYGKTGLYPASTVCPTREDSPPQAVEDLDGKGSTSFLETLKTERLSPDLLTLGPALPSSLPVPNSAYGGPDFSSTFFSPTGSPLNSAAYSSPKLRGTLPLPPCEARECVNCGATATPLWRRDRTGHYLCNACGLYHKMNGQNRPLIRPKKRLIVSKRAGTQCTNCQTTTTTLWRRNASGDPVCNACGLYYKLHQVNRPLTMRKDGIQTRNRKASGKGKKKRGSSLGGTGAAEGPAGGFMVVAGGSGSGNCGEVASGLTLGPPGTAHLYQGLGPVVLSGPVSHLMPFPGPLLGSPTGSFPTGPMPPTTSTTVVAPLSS

| Oligonucleotide | target | technique | molecule type | notes | with | Kd |
| --- | --- | --- | --- | --- | --- | --- |
| TCCTAGTGTCCACCAAATTCCTCAGCGCTCGCTCACCCTCCTCTACGGCCACGACTCTGGGAGTG (dsDNA) | TDG 1-410 (Homo sapiens, UniProt Q13569) | EMSA | double-stranded DNA, one strand shown | – | – | 49 nM |
| GUCUUCAUU (ssRNA) | U2AF2 | sequencing of bound RNA | RNA | motif only | – | 180 nM |
| CTGAAGGGGGGGCTATAAAAGTTAGTGGGGGCTCCTCAAGTCAATCGGTCC (dsDNA; 5'-amino-C6 primer) | SPT15 full length assumed | array | double-stranded DNA, one strand shown | TBP alone | – | 1.09 ± 0.06 nM |
| CAATACACTGTTATCAGACACACGTGTCTAGCTACTCGTTCGGTTATCCGGCGGTATGAC (dsDNA) | CBF1 | MITOMI | double-stranded DNA, one strand shown | not purified | – | 168 ± 8 nM |
| GCAGCCCTGGTTAAAAACAAGGTTTATAAATATTGGTTTAAAAGCAGGTTAAAAGACAGGTTAGCGGTGG (ssDNA) | trfA 98-382 G254D/S267L/K303E (Escherichia coli, UniProt P07676) | SPR | single-stranded DNA | – | – | 56.7 nM |
| GCGGUGUAUAGCCUAAUCUUUACCGC (structured RNA) | PARP1 216-1014 del1-215 (Homo sapiens, UniProt P09874) | fluorescence polarization | folded RNA | Hill coefficient 0.80 | – | 69.1 ± 5.9 nM |
| CGATCATGGAGCCACGAGCTCCCGTTACAG / CTGTAACGGGAGCTNGTGGCTCCATGATCG (dsDNA; blunt, 8-oxoG opposite THF abasic) | T1, MUTYH 1-535 (Homo sapiens) | EMSA | – | – | – | < 0.05 nM |
| TTTGCGTGGGCTGTGGTGCTTT (ssDNA) | traI 330-858 (Escherichia coli, UniProt P14565) | fluorescence titration | single-stranded DNA | – | – | 47 ± 5.8 nM |
| CTTAAATCTTGCATTGGTTTTCCTTATATTCAGACTTTGTTATATAAGGCTTTCGTCTTTG (dsDNA) | nac full length assumed | BLI | double-stranded DNA, one strand shown | – | – | 8.98 nM |
| GUCUCUUCA (ssRNA) | U2AF2 | sequencing of bound RNA | RNA | motif only | – | 510 nM |
| CAATACACTGTTATCAGACTCACGTGTCGAGCTACTCGTTCGGTTATCCGGCGGTATGAC (dsDNA) | CBF1 | MITOMI | double-stranded DNA, one strand shown | not purified | – | 82 ± 4 nM |
| ATGATTACTAATTCTTAACATTCGAGTTCAATCTCTCAAGTCAATCGGTCC (dsDNA; 5'-amino-C6 primer) | SPT15 full length assumed | array | double-stranded DNA, one strand shown | TBP alone | – | 2.34 ± 0.17 nM |
| ACAGGGGTGTGGGCACAGGGGTGTGGGC (G-quadruplex DNA (Homo sapiens); intramolecular G4) | IGF2 fragment (Homo sapiens) | SPR | folded DNA | – | IGF-2 0.1-100 pM | 3 nM |
| CUGACGGAAGUACGUGGAAAGCCGAAAGUGUGUCCCGGUCAG (L-RNA; L-ribonucleotides; 5' DBCO-succinate-aminohexyl) | CXCL8 fragment (Homo sapiens) | SPR | – | – | – | 0.22 nM and 0.087 nM |
| CTCAGGAATTCCTATACAGTAATGTGGAGCTCAGTTCAAGTCAATCGGTCC (dsDNA; 5'-amino-C6 primer) | SPT15 full length assumed | array | double-stranded DNA, one strand shown | TBP alone | – | 1.6 ± 0.08 nM |
| AUACAACAUACAACAUACAA (ssRNA) | GATA1 200-319 (Homo sapiens, UniProt P15976) | fluorescence anisotropy | RNA | – | – | 230 ± 90 nM |
| CAATACACTGTTATCAGACGCACGTGTCGAGCTACTCGTTCGGTTATCCGGCGGTATGAC (dsDNA) | CBF1 | MITOMI | double-stranded DNA, one strand shown | not purified | – | 109 ± 5 nM |
| DNA 1 TCAAAGTATCCAAATGAACGAATATGACTTTAGGAGTAGAGCGCGTGAGGATACA / DNA 2 TGTATCCTCACGGCGTCTAC (dsDNA; primer/template, 3' dideoxy-C, 5' overhang, mismatches) | polA 324-928 (Escherichia coli, UniProt P00582) | fluorescence polarization | double-stranded DNA | without H2O2 | dTTP | 45.6 nM |

| Oligonucleotide | target | technique | molecule type | notes | with | Kd |
| --- | --- | --- | --- | --- | --- | --- |
| AAGAUAGUU (ssRNA) | U2AF2 | sequencing of bound RNA | RNA | motif only | – | 3560 nM |
| TTCTGATCACCGACATGAAAGCTAACAGGAACGTTAAGTGCCTTAGCTCCGGCTACCGTGC (dsDNA) | nac full length assumed | BLI | double-stranded DNA, one strand shown | – | – | 3220 nM |
| CAATACACTGTTATCATACACACGTGTCGAGCTACTCGTTCGGTTATCCGGCGGTATGAC (dsDNA) | CBF1 | MITOMI | double-stranded DNA, one strand shown | not purified | – | 237 ± 15 nM |
| CGCGGGCACATGGGGACATGGGTACATGGTCACATGGTGACATGGTTACATGTAGCTCCGGCGGTATGAC (dsDNA) | CBF1 full length assumed | MITOMI | double-stranded DNA, one strand shown | not purified | – | 61 ± 4 nM |
| AGCGTCACAGACATGAAATTGGTAAGACCAATTGACTTCGGCAAGTGGCTTAAGACAGGAA (dsDNA) | glnG full length assumed | BLI | double-stranded DNA, one strand shown | – | – | 11000 nM |
| GGAACGAUACAGAGAAGAUUAG (ssRNA) | SART3 671-877 (Homo sapiens, UniProt Q15020) | fluorescence polarization | RNA | NaCl 150 mM | – | 188 ± 5 nM |
| CGCTAAAGTGGCAAAGTGGGAAAGTGGTAAAGTGTCAAAGTGTGAAAGTGTTAAACTCCGGCGGTATGAC (dsDNA) | CBF1 full length assumed | MITOMI | double-stranded DNA, one strand shown | not purified | – | 19000 ± 4000 nM |
| AGCGTCACAGACATGAAGCTGGTCTGACCACTTGGCTTCGGCAAGTGGCTTAAGACAGGAA (dsDNA) | pdhR full length assumed (Escherichia coli, UniProt P0ACL9) | BLI | double-stranded DNA, one strand shown | – | – | 17.9 nM |
| GCAAUUUGG (ssRNA) | U2AF2 | sequencing of bound RNA | RNA | motif only | – | 17300 nM |
| GCGGATGAAGACTGGTGTGGTTGGGGGTCTGGCGGGGGGTGGGGAGGGCTGCGGGTGTGCCCTAAATACGAGCAAC (ssDNA; single-stranded) | Superoxide dismutase [Cu-Zn] 1-154 (Botrytis cinerea, UniProt A0A384JBV7) | ELONA | folded DNA | – | – | 0.83 ± 0.22 nM |
| RNA 1 GCAGUAGGGUGAGGGUGUUGGCAGGGAGCGCCCUCCCCCAUAGUGU / RNA 2 ACACUAUGGGGGAGGGCGCUCCCUGCCAACACCCUCACCCUACUGC (dsRNA) | MECP2 | fluorescence polarization | double-stranded RNA | Hill coefficient 0.70 | – | 14.8 ± 1.5 nM |
| CGCGGACACGTGTACACGTTCACACGTTGACACGTTTACACTACCACACTACGACCTCCGGCGGTATGAC (dsDNA) | CBF1 full length assumed | MITOMI | double-stranded DNA, one strand shown | not purified | – | 110 ± 10 nM |
| GCAGUAGGGUGAGGGUGUUGGCAGGGAGCGCCCUCCCCCAUAGUGU (RNA; multiple G-quadruplex hairpins) | MECP2 | fluorescence polarization | folded RNA | Hill coefficient 0.91 | – | 1.51 ± 0.15 nM |
| TCCTGAAGGGGAGCCTATAAAAGGTCCTATCGTCGTCAAGTCAATCGGTCC (dsDNA; 5'-amino-C6 primer) | SPT15 full length assumed | array | double-stranded DNA, one strand shown | TBP alone | – | 3.9 ± 0.24 nM |
| CAATACACTGTTATCAGACACACGTGTCGGGCTACTCGTTCGGTTATCCGGCGGTATGAC (dsDNA) | CBF1 | MITOMI | double-stranded DNA, one strand shown | not purified | – | 213 ± 12 nM |
| TCCTGAAGGGGCGCCCTAGCTTGGTCCTATCGTCGTCAAGTCAATCGGTCC (dsDNA; 5'-amino-C6 primer) | T2, TOA1/TOA2 1-286; 1-122 (Saccharomyces cerevisiae) | array | double-stranded DNA, one strand shown | TFIIA alone | – | 108 ± 70.5 nM |
| GGTAACTTAGCGTCTCGTTGTGATTAAGTTTGACGAGGAATGGAATGCGATGCGCATAACG (dsDNA) | glnG full length assumed | BLI | double-stranded DNA, one strand shown | – | – | 6410 nM |

Repeated from above:
| Oligonucleotide | target | technique | molecule type | notes | with | Kd |
| --- | --- | --- | --- | --- | --- | --- |
| AUACAACAUACAACAUACAA (ssRNA) | GATA1 200-319 (Homo sapiens, UniProt P15976) | fluorescence anisotropy | RNA | – | – | 230 ± 90 nM |
| CAATACACTGTTATCAGACGCACGTGTCGAGCTACTCGTTCGGTTATCCGGCGGTATGAC (dsDNA) | CBF1 | MITOMI | double-stranded DNA, one strand shown | not purified | – | 109 ± 5 nM |
